Experimental data gathered from unrelated publications.
Each line is one published result; not all experiments were run side by side. Several values in a cell are separate wells, animals, samples, runs or records. ± marks the error that the study gave.

CSCC[C@H](NC(=O)CNC(=O)[C@H](CCCCN)NC(=O)[C@H](CC(C)C)NC(=O)[C@@H]1CCCN1C(=O)[C@H](CO)NC(=O)[C@H](Cc1c[nH]cn1)NC(=O)[C@H](Cc1c[nH]c2ccccc12)NC(=O)[C@H](CCCNC(=N)N)NC(=O)[C@H](CC(C)C)NC(=O)[C@H](CCCNC(=N)N)NC(=O)[C@H](Cc1c[nH]c2ccccc12)NC(=O)[C@H](CS)NC(=O)CCCCCNC(=O)CN1CCN(CC(=O)O)CCN(CC(=O)O)CCN(CC(=O)O)CC1)C(=O)O [copper-64 labelled]  tissue uptake (BALB/c nude mouse, Huh-7 tumour, small intestine; intravenous, 6 h, ex vivo biodistribution): 3.78 %ID/g
CC[C@H](C)[C@H](NC(=O)[C@H](CCCCN)NC(=O)CNC(=O)[C@H](CC(C)C)NC(=O)[C@H](Cc1ccccc1)NC(=O)[C@H](CCCCN)NC(=O)[C@H](CO)NC(=O)[C@H](Cc1ccccc1)NC(=O)[C@H](Cc1c[nH]c2ccccc12)NC(=O)[C@H](CCC(N)=O)NC(=O)[C@@H](NC(=O)[C@H](Cc1ccccc1)NC(=O)CCCCCNC(=O)CN1CCN(CC(=O)O)CCN(CC(=O)O)CCN(CC(=O)O)CC1)C(C)C)C(=O)N[C@@H](CCC(=O)O)C(=O)N1CCC[C@H]1C(=O)N[C@@H](CC(=O)O)C(=O)N[C@H](C(=O)N[C@@H](CO)C(=O)N[C@@H](CCC(N)=O)C(=O)N[C@H](C(=O)N[C@@H](CCC(N)=O)C(=O)N[C@@H](CC(=O)O)C(=O)N1CCC[C@H]1C(=O)N[C@@H](CC(N)=O)C(=O)N[C@@H](CC(=O)O)C(=O)N[C@@H](CCC(N)=O)C(=O)N[C@@H](Cc1ccc(O)cc1)C(=O)N[C@@H](CCC(=O)O)C(=O)N1CCC[C@H]1C(=O)N[C@@H](Cc1ccccc1)C(=O)O)C(C)C)C(C)C [copper-64 labelled]  tissue uptake (GZMB-/- mouse bearing CT26 tumour, tumor; dose not given, 2 h, vehicle-treated): 1.66 ± 0.3 %ID/g
CSCC[C@H](N)C(=O)N[C@@H](C)C(=O)N[C@@H](CCCNC(=N)N)C(=O)N[C@@H](CCCNC(=N)N)C(=O)N[C@@H](CC(=O)O)C(=O)N[C@@H](CCCCN)C(=O)N[C@H](C(=O)N[C@@H](CC(=O)O)C(=O)N[C@@H](Cc1ccccc1)C(=O)N[C@@H](C)C(=O)N[C@@H](CCCNC(=N)N)C(=O)N[C@@H](CCCNC(=N)N)C(=O)N[C@@H](CCCNC(=N)N)C(=O)N[C@@H](CCCNC(=N)N)C(=O)NCCCCCC(=O)NCCCCC(NC(=O)CCCCCNC(=O)[C@H](CCCNC(=N)N)NC(=O)[C@H](CCCNC(=N)N)NC(=O)[C@H](CCCNC(=N)N)NC(=O)[C@H](CCCNC(=N)N)NC(=O)[C@H](C)NC(=O)[C@H](Cc1ccccc1)NC(=O)[C@H](CC(=O)O)NC(=O)[C@@H](NC(=O)[C@H](CCCCN)NC(=O)[C@H](CC(=O)O)NC(=O)[C@H](CCCNC(=N)N)NC(=O)[C@H](CCCNC(=N)N)NC(=O)[C@H](C)NC(=O)[C@@H](N)CCSC)[C@@H](C)O)C(=O)NCCCCC(NC(=O)C(CCCCNC(=O)CCCCCNC(=O)[C@H](CCCNC(=N)N)NC(=O)[C@H](CCCNC(=N)N)NC(=O)[C@H](CCCNC(=N)N)NC(=O)[C@H](CCCNC(=N)N)NC(=O)[C@H](C)NC(=O)[C@H](Cc1ccccc1)NC(=O)[C@H](CC(=O)O)NC(=O)[C@@H](NC(=O)[C@H](CCCCN)NC(=O)[C@H](CC(=O)O)NC(=O)[C@H](CCCNC(=N)N)NC(=O)[C@H](CCCNC(=N)N)NC(=O)[C@H](C)NC(=O)[C@@H](N)CCSC)[C@@H](C)O)NC(=O)CCCCCNC(=O)[C@H](CCCNC(=N)N)NC(=O)[C@H](CCCNC(=N)N)NC(=O)[C@H](CCCNC(=N)N)NC(=O)[C@H](CCCNC(=N)N)NC(=O)[C@H](C)NC(=O)[C@H](Cc1ccccc1)NC(=O)[C@H](CC(=O)O)NC(=O)[C@@H](NC(=O)[C@H](CCCCN)NC(=O)[C@H](CC(=O)O)NC(=O)[C@H](CCCNC(=N)N)NC(=O)[C@H](CCCNC(=N)N)NC(=O)[C@H](C)NC(=O)[C@@H](N)CCSC)[C@@H](C)O)C(N)=O)[C@@H](C)O (some centres unmarked)  tissue distribution (C57BL/6 mouse female, pancreas; dose not given, 6 h; reference: total): 0.52% and 1% and 1.29%
C[C@H](O)[C@@H](NC(=O)[C@H]1CCCN1C(=O)[C@@H](CCCCN)NC(=O)[C@@H](CO)NC(=O)[C@@H](Cc1ccc(O)cc1)NC(=O)[C@@H](CC(N)=O)NC(=O)CCOCCOCCOCCNC(=O)CN1CCN(CC(=O)O)CCN(CC(=O)O)CCN(CC(=O)O)CC1)C(=O)N[C@H](CC(=O)O)C(=O)N[C@H](CCCNC(=N)N)C(=O)N[C@H](CCC(N)=O)C(=O)N[C@H](Cc1ccc(O)cc1)C(=O)N[C@H](Cc1c[nH]cn1)C(=O)N[C@H](Cc1ccccc1)C(N)=O [copper-64 labelled]  tissue uptake (ex vivo gamma counting; C57BL/6J mouse, normal, small intestine; intravenous, 1.85 MBq, 40 min): 1.32 ± 0.23 %ID/g
CC[C@H](C)[C@H](NC(=O)[C@H](CCCNC(=N)N)NC(=O)[C@H](CCCCN)NC(=O)[C@H](Cc1ccc(O)cc1)NC(=O)[C@H](CC(=O)O)NC(=O)[C@H](C)NC(=O)CNC(=O)CCOCCOCCOCCNC(=O)CN1CCN(CC(=O)O)CCN(CC(=O)O)CCN(CC(=O)O)CC1)C(=O)N[C@H](C(=O)N[C@@H](CC(C)C)C(=O)N[C@@H](CCCCN)C(=O)N[C@H](C(=O)N[C@@H](CC(N)=O)C(N)=O)C(C)C)[C@@H](C)O [copper-64 labelled]  tissue uptake (ex vivo gamma counting; male C57BL/6J mouse, B16-F10 tumour, B16-F10 tumour; intravenous, 1.85 MBq, 40 min): 4.08 ± 1.32 %ID/g
CN1Cc2cc(Cl)ccc2-n2c(nnc2C2CCN(c3cccc([18F])n3)CC2)C1  tissue uptake (C57BL/6 mouse male, spleen; intravenous, 3.7 MBq, 5 min): 4.82 ± 0.4 %ID/g
CC[C@H](C)[C@H](NC(=O)[C@H](CCCNC(=N)N)NC(=O)[C@H](CCCCN)NC(=O)[C@H](Cc1ccc(O)cc1)NC(=O)[C@H](CC(=O)O)NC(=O)[C@H](C)NC(=O)CNC(=O)CCOCCOCCOCCNC(=O)CN1CCN(CC(=O)O)CCN(CC(=O)O)CCN(CC(=O)O)CC1)C(=O)N[C@H](C(=O)N[C@H](C(=O)N[C@@H](CCCCN)C(=O)N[C@H](C(=O)N[C@@H](CC(N)=O)C(N)=O)C(C)C)C(C)C)[C@@H](C)O [copper-64 labelled]  tissue uptake (ex vivo gamma counting; male C57BL/6J mouse, B16-F10 tumour, intestinal lymph node; intravenous, 1.85 MBq, 20 min): 0.972 ± 0.434 %ID/g
CSCC[C@H](N)C(=O)N[C@@H](C)C(=O)N[C@@H](Cc1c[nH]c2ccccc12)C(=O)N[C@@H](Cc1c[nH]cn1)C(=O)N[C@@H](CC(=O)O)C(=O)N[C@@H](CC(=O)O)C(=O)N[C@@H](CCC(=O)O)C(=O)N[C@@H](CCC(=O)O)C(=O)N[C@@H](Cc1ccccc1)C(=O)N[C@@H](C)C(=O)N[C@@H](CCCNC(=N)N)C(=O)N[C@@H](CCCNC(=N)N)C(=O)N[C@@H](CCCNC(=N)N)C(=O)N[C@@H](CCCNC(=N)N)C(=O)NCCCCCC(=O)NCCCCC(NC(=O)CCCCCNC(=O)[C@H](CCCNC(=N)N)NC(=O)[C@H](CCCNC(=N)N)NC(=O)[C@H](CCCNC(=N)N)NC(=O)[C@H](CCCNC(=N)N)NC(=O)[C@H](C)NC(=O)[C@H](Cc1ccccc1)NC(=O)[C@H](CCC(=O)O)NC(=O)[C@H](CCC(=O)O)NC(=O)[C@H](CC(=O)O)NC(=O)[C@H](CC(=O)O)NC(=O)[C@H](Cc1c[nH]cn1)NC(=O)[C@H](Cc1c[nH]c2ccccc12)NC(=O)[C@H](C)NC(=O)[C@@H](N)CCSC)C(=O)NCCCCC(NC(=O)C(CCCCNC(=O)CCCCCNC(=O)[C@H](CCCNC(=N)N)NC(=O)[C@H](CCCNC(=N)N)NC(=O)[C@H](CCCNC(=N)N)NC(=O)[C@H](CCCNC(=N)N)NC(=O)[C@H](C)NC(=O)[C@H](Cc1ccccc1)NC(=O)[C@H](CCC(=O)O)NC(=O)[C@H](CCC(=O)O)NC(=O)[C@H](CC(=O)O)NC(=O)[C@H](CC(=O)O)NC(=O)[C@H](Cc1c[nH]cn1)NC(=O)[C@H](Cc1c[nH]c2ccccc12)NC(=O)[C@H](C)NC(=O)[C@@H](N)CCSC)NC(=O)CCCCCNC(=O)[C@H](CCCNC(=N)N)NC(=O)[C@H](CCCNC(=N)N)NC(=O)[C@H](CCCNC(=N)N)NC(=O)[C@H](CCCNC(=N)N)NC(=O)[C@H](C)NC(=O)[C@H](Cc1ccccc1)NC(=O)[C@H](CCC(=O)O)NC(=O)[C@H](CCC(=O)O)NC(=O)[C@H](CC(=O)O)NC(=O)[C@H](CC(=O)O)NC(=O)[C@H](Cc1c[nH]cn1)NC(=O)[C@H](Cc1c[nH]c2ccccc12)NC(=O)[C@H](C)NC(=O)[C@@H](N)CCSC)C(N)=O (some centres unmarked)  tissue distribution (mouse C57BL/6 female, spine; 6 h, radioiodinated peptide; reference: total radioactivity): 5.61% and 6.34%

Excerpt of the above:
CC[C@H](C)[C@H](NC(=O)[C@H](CCCCN)NC(=O)CNC(=O)[C@H](CC(C)C)NC(=O)[C@H](Cc1ccccc1)NC(=O)[C@H](CCCCN)NC(=O)[C@H](CO)NC(=O)[C@H](Cc1ccccc1)NC(=O)[C@H](Cc1c[nH]c2ccccc12)NC(=O)[C@H](CCC(N)=O)NC(=O)[C@@H](NC(=O)[C@H](Cc1ccccc1)NC(=O)CCCCCNC(=O)CN1CCN(CC(=O)O)CCN(CC(=O)O)CCN(CC(=O)O)CC1)C(C)C)C(=O)N[C@@H](CCC(=O)O)C(=O)N1CCC[C@H]1C(=O)N[C@@H](CC(=O)O)C(=O)N[C@H](C(=O)N[C@@H](CO)C(=O)N[C@@H](CCC(N)=O)C(=O)N[C@H](C(=O)N[C@@H](CCC(N)=O)C(=O)N[C@@H](CC(=O)O)C(=O)N1CCC[C@H]1C(=O)N[C@@H](CC(N)=O)C(=O)N[C@@H](CC(=O)O)C(=O)N[C@@H](CCC(N)=O)C(=O)N[C@@H](Cc1ccc(O)cc1)C(=O)N[C@@H](CCC(=O)O)C(=O)N1CCC[C@H]1C(=O)N[C@@H](Cc1ccccc1)C(=O)O)C(C)C)C(C)C [copper-64 labelled]  tissue uptake (GZMB-/- mouse bearing CT26 tumour, tumor; dose not given, 2 h, vehicle-treated): 1.66 ± 0.3 %ID/g
